Published values gathered from unrelated publications.
Every numbered part comes from another study and shows a few of its results, in no order.

Study 1
Target: Sal-like protein 4, full length isoform A (SALL4, Homo sapiens, UniProt Q9UJQ4, residues 1-1053)
Chain of UniProt Q9UJQ4 (whole entry, looked up): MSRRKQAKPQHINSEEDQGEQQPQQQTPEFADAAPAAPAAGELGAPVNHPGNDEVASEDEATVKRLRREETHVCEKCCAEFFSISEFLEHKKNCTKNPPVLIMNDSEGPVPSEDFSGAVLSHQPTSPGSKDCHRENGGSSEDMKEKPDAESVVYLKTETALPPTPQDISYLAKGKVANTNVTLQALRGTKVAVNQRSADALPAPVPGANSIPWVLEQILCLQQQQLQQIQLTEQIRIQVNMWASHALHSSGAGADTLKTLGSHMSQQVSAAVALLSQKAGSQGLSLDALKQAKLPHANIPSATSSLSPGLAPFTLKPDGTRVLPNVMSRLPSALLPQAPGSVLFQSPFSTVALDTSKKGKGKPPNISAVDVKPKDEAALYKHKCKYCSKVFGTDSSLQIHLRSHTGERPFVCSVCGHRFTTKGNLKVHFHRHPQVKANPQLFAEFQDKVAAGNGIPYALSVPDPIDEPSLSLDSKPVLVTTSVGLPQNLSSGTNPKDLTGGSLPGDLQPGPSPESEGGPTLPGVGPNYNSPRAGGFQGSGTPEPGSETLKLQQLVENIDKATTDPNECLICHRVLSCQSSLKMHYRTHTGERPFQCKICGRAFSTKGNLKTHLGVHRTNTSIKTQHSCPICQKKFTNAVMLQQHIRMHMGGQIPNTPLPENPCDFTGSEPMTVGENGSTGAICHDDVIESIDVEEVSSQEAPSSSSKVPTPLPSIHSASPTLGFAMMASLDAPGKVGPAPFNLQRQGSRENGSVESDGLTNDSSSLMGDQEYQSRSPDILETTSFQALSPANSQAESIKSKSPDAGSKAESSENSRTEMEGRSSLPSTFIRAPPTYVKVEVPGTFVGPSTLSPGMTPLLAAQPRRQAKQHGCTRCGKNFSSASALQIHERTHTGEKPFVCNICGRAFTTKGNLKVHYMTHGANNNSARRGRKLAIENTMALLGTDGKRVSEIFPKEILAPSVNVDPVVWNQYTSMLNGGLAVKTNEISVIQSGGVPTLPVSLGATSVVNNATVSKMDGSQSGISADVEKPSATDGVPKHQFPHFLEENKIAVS
Technique: universal PBM
Form: double-stranded DNA, one strand shown
Medium: in vitro
Concentration: 600 nM
Notes: 8-mer, flanks averaged, mean of replicates
Direction: higher = stronger binding
`GTCGCAAA` gave an E-score of 0.0502.
With `AGCCTTTA` the E-score was 0.139.
The E-score of `CAGTTCCG` is reported as -0.215.
With `CAGCAAGA` the E-score was 0.0563.

Study 2
Target: Histone acetyltransferase KAT6A, winged helix 2, GST fusion (KAT6A, Homo sapiens, UniProt Q92794, residues 85-181)
Technique: protein binding microarray
Form: double-stranded DNA, one strand shown
Medium: in vitro
Concentration: not given
Notes: 8-mer, flanks averaged, mean of 2 arrays, mostly near background
Reference: not given
Direction: higher = stronger binding
Construct (chain): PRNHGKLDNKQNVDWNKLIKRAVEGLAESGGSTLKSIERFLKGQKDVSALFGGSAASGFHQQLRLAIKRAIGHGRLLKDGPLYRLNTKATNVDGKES
With `AGAGACCG` the E-score was -0.0478.
The E-score of `ACAGCAGA` is reported as 0.109.
With `CCAGAGCG` the E-score was -0.00196.
`ATTCGGCG` has an E-score of 0.0839.

Study 3
Target: Centromere-binding protein 1, full length, His-tagged (CBF1, Saccharomyces cerevisiae, UniProt P17106, residues 1-351)
Chain of UniProt P17106 (whole entry, looked up): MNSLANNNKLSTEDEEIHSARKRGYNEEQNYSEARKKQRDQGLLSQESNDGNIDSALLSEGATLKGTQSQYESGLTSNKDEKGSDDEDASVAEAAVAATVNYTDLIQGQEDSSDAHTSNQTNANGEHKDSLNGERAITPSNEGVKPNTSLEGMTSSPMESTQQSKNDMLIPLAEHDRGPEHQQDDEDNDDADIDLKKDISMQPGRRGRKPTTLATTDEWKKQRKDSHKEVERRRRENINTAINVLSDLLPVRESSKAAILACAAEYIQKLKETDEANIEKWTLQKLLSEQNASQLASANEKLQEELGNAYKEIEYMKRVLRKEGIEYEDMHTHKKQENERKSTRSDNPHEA
Technique: competition protein-binding microarray
Form: double-stranded DNA, one strand shown
Medium: in vitro
Concentration: 2 µM
Notes: whole 60-bp probe, lowest competitor level
Together with: Pho4 competitor, 0.05 µM
Direction: higher = stronger binding
For `CTTCTGTAAATTTGCGTCGTGGGTGGACGCGCCCCGGTCTTGATTCGCTTGACGCTGCTG`, the fluorescence intensity was 81.7 a.u.
`ATATATCTACTCCATCACGTTGCAAGACCCATCACAGTCTTGATTCGCTTGACGCTGCTG` has a fluorescence intensity of 255 a.u.
For `GTCTTGTCTCATTGTCACTTCACTTTCCCCACTTCAGTCTTGATTCGCTTGACGCTGCTG`, the fluorescence intensity was 87.2 a.u.
For `CTCCTCTGCAGAAAGCACGAGGTTGCCCTTCTACAGGTCTTGATTCGCTTGACGCTGCTG`, the fluorescence intensity was 126 a.u.

Single results of other studies
`PhoQ, residues 284 288 289 292 302 303 STVVAA` gave a fold induction of 7.92 (PhoP, residues 12 14 15 18 19 YHFSH (Escherichia coli, UniProt P23836); Sort-seq, item: YFP reporter; E. coli; PhoQ-PhoP variant library, together with: 10 µM Mg2+; reference: high Mg2+ state, higher = stronger signaling).
